Published values from different studies.
Each line is one published result; not all experiments were run side by side. Several values in a cell are separate wells, animals, samples, runs or records. ± gives the spread as reported.

Compound	cell line	assay	conditions	scale	measurement	result
COC(=O)CNC(=O)C(=O)OC	MDA-MB-231, ARNT knockout or control	immunoblot	concentration not given, 12 h		H3K4me3 level	increased
CCCN1CCN(c2ccc3[nH]c(-c4ccc5[nH]c(-c6cc(OC)c(OC)c(OC)c6)nc5c4)nc3c2)CC1	SF-268	SRB	10 µM, 48 h		growth percent	75.6%
CO/C=C(/C(=O)OC)c1ccc(Cl)cc1COc1ccc(OCCOC)cc1	HEK293T ATF4-FLuc reporter	ATF4 reporter gene, activator, luciferase reporter			EC50	1120 nM
COc1cc(/C=C/C(=O)N2CCC=CC2=O)cc(OC)c1OC	MDA-MB-468	qRT-PCR, item: NDUFB4	30 µM, 6 h	relative to: time zero	mRNA level	89 ± 12.1%
C[C@@]12C(=O)OC(=O)[C@]1(C)[C@H]1CC[C@@H]2O1	THP-1	pyroptotic LDH release	2 µM, 40 min, together with: LPS then nigericin		inhibition	-22.3%
N#Cc1c(N)nc(SCc2csc(-c3ccc(Cl)cc3)n2)c(C#N)c1-c1ccc(OCCO)cc1	HEK293T ATF4-FLuc reporter	ATF4 reporter gene, activator, luciferase reporter			EC50	332 nM
O=C(O)CCc1ccc(O)cc1	Caco-2/THP-1 co-culture	TEER	0.05 µg/mL, together with: LPS 50 ng/mL	relative to: control	transepithelial electrical resistance	88 ± 9.2%
Cn1cc(-c2ccc(-c3cncc(Cl)c3N3CCC4(CCNC4=O)CC3)cc2)cn1	COLO 205	gene expression, microarray, item: TTLL5 mRNA	concentration not given, 6 h	relative to: untreated cells	log2 fold change	-1.89
C=CCn1c(=O)c2cnc(Nc3ccc(N4CCN(C)CC4)cc3)nc2n1-c1ccc2c(n1)[C@@](O)(CC)CC2	NCI-H1048	flow cytometry	concentration not given		pHH3-negative cells	83%
Cc1cnc2ccc3c(c2n1)N1CCC(O)N=C1N3C (stereo not drawn)	BALB/c 3T3		5 µM	relative to: solvent control	relative colony forming efficiency	27 ± 3%
CO/N=C1\C[C@]2(C[C@@H]3C[C@@H](C/C=C(\C)C[C@@H](C)/C=C/C=C4\CO[C@@H]5[C@H](O)C(C)=C[C@@H](C(=O)O3)[C@]45O)O2)O[C@H](/C(C)=C/C(C)C)[C@H]1C	THP-1	pyroptotic LDH release	2 µM, 40 min, together with: LPS then nigericin		inhibition	9.85%
Cn1c(Nc2nc3ccc(C(F)(F)F)cc3s2)nc2cc(C(=O)NCCOCCO)ccc21	SH-SY5Y	RNA-seq, item: TRAF1 mRNA	5 µM, 5 h	relative to: untreated cells	fold change	1.94
C[C@@H](O)[C@@H]1NC(=O)[C@H](CCCCN)NC(=O)[C@@H](Cc2c[nH]c3ccccc23)NC(=O)[C@H](Cc2ccc(O)cc2)NC(=O)[C@H](NC(=O)[C@H](Cc2ccc([N+](=O)[O-])cc2)NC(=O)CN2CCCN3CCN(CCCN(CC(=O)O)CC3)CC2)CSSC[C@@H](C(=O)N[C@H](Cc2ccc(O)cc2)C(N)=O)NC1=O [copper-64 labelled]	HCT-116 p53-/- SSTR2-transfected		24 h, together with: cisplatin 40 µM	relative to: cell-associated activity	nuclear uptake	8.81 ± 1.02%
O=C(O)CCc1ccc(O)c(O)c1	Caco-2/THP-1 co-culture		concentration not given, together with: LPS 200 ng/mL		kynurenine level	114 ± 2.7 % change
CCOC(=O)c1cc(Cl)cc(NC(=O)c2sc(Cl)cc2S(=O)(=O)N(C)c2ccc(OCC)c(OC)c2)c1	primary mouse glial cells	qPCR, item: ABCA1	concentration not given, 24 h		mRNA level	increased
COC1=C2C[C@@H](C)C[C@H](OC)[C@H](O)[C@@H](C)/C=C(\C)[C@H](OC(N)=O)[C@@H](OC)/C=C\C=C(/C)C(=O)NC(=CC1=O)C2=O	human iPSC cardiomyocytes	plate-normalised	concentration not given, hit retest	relative to: vehicle controls, SDs below control	MyBP-C level change	7.91 SD
Cc1cccc(-c2[nH]c(CNc3ccccc3F)nc2-c2ccc3ncnn3c2)n1	bone marrow CD138+ myeloma cells	XTT	1.6 µM, mean of three patients		viability	9%
Cc1nn(-c2nc3ccc(Cl)c(Cl)c3[nH]2)c(O)c1C1OC(=O)c2ccccc21 (stereo not drawn)	RAW-ISG	TBK1 phosphorylation, western blot	10 µM, together with: poly(I:C)	relative to: DMSO	phospho-TBK1/TBK1 ratio	0.701
COc1cc(/C=C/c2ccc(O)cc2)cc(OC)c1	human iPSC cardiomyocytes	plate-normalised	concentration not given, hit retest	relative to: vehicle controls, SDs below control	MyBP-C level change	16.7 SD
CC(=O)OCC[N+](C)(C)C	THP-1	pyroptotic LDH release	2 µM, 40 min, together with: LPS then nigericin		inhibition	-1.32%
COc1cnc2cccc(N3CCc4c(cc(Cn5ccnc5C)cc4-c4cn(C)nc4C(F)(F)F)C3=O)c2c1	NCI-H747	cell growth, inhibitor	120 h		EC50	> 30000 nM
CONC(=N)c1ccc(-c2ccc(-c3ccc(C(=N)NOC)cc3)o2)cc1	HEK293T ATF4-FLuc reporter	ATF4 reporter gene, activator, luciferase reporter			EC50	8640 nM
Cc1cc(Nc2ncc(Cl)c(Nc3ccccc3S(=O)(=O)C(C)C)n2)c(OC(C)C)cc1C1CCNCC1	CLB-GE	phosphoproteomics LC-MS/MS, item: GAB1 phosphorylation	200 nM, 60 min	relative to: untreated	log2 fold change	-4.31
O=C1c2ccccc2C(=O)C1c1ccccc1	THP-1	pyroptotic LDH release	2 µM, 40 min, together with: LPS then nigericin		inhibition	18.3%
CC(C)C[C@H](NC(=O)[C@H](Cc1ccccc1)NC(=O)c1cnccn1)B(O)O	HEK293T ATF4-FLuc reporter	ATF4 reporter gene, activator, luciferase reporter			EC50	> 9960 nM
CC(=O)NC[C@H]1CN(c2ccc(-c3ccc(CNCc4cnn[nH]4)cc3)c(F)c2)C(=O)O1	THP-1	pyroptotic LDH release	2 µM, 40 min, together with: LPS then nigericin		inhibition	34.4%

Compound	cell line	assay	conditions	scale	measurement	result
CC(C)NCC(O)c1ccc(O)c(O)c1 (stereo not drawn)	mouse ventricular cardiomyocytes		dose not given, 0.035 s		sarcomere length	1.8 µm
CCCCCCCCCCCCC(=O)O	THP-1	pyroptotic LDH release	2 µM, 40 min, together with: LPS then nigericin		inhibition	-24.4%
CCN(CC)Cc1ccc2cc(COC(=O)Nc3ccc(C(=O)NO)cc3)ccc2c1	HEK293T ATF4-FLuc reporter	ATF4 reporter gene, activator, luciferase reporter			EC50	480 nM
CCc1c(-c2ccccc2)c(-c2ccccc2)nn1-c1ccccc1-c1cccc(OCC(=O)O)c1	mouse osteoclasts	RT-qPCR, item: Oscar	1 µM, unit not given, together with: M-CSF plus RANKL	relative to: bone marrow macrophages	mRNA level	1.68 and 1.49 and 1.43
Cc1nnn(C)c1-c1cnc2c3ccc(C(C)(C)O)cc3n([C@H](c3ccccc3)C3CCOCC3)c2c1	HEK293T ATF4-FLuc reporter	ATF4 reporter gene, activator, luciferase reporter			EC50	1260 nM
COc1cccc2c1C(=O)c1c(O)c3c(c(O)c1C2=O)C[C@@](O)(C(=O)CO)C[C@@H]3O[C@H]1C[C@H](N)[C@H](O)[C@H](C)O1	HepG2	oxidative stress, item: reactive oxygen species	6 h, distribution mode 2		point of departure	0.0977 µM
CCn1cc(-c2cc(Cn3ccoc3=N)cc3c2CCN([C@@H](C)c2cc(OC)ccn2)C3=O)c(C(F)(F)F)n1	SNU-423	cell growth, inhibitor	120 h		EC50	> 30000 nM
C#C[C@@]1(O)[C@@H](CO)O[C@@H](n2cc(F)c3c(N)ncnc32)[C@@H]1O	RXF 393	SRB	NCI-60 screen		TGI	2990 nM
O=C(C[C@@H](C(F)F)n1ccc(F)n1)N1CCC(O)(Cn2cnc3c(cnn3-c3ccc(F)cc3)c2=O)CC1	CHP-212 parental (wild-type USP7)	annexin V-PI flow cytometry	0.1 µM, 48 h		early apoptotic cells (annexin V+/PI-)	11% and 11.8% and 10.4%
Cc1cc(-c2ccccc2)n(-c2nc(-c3ccc(Cl)cc3)c3c(NC(=O)c4ccccc4)nnc-3[nH]2)n1	OVCAR-8	SRB	10 µM, NCI60 single-dose screen	relative to: untreated	cell growth	102%
CCn1c(=O)/c(=C2\Sc3ccccc3N2C)s/c1=C/c1cccc[n+]1CC	HEK293T ATF4-FLuc reporter	ATF4 reporter gene, activator, luciferase reporter			EC50	3890 nM
C[C@H](CS)C(=O)N1CCC[C@H]1C(=O)O	HUVEC	western blot	10, 100, 1 µM, together with: angiotensin II	relative to: angiotensin II alone	Keap1 protein level	22.7 % decrease
CCOc1ccc(Cc2nccc3cc(OCC)c(OCC)cc23)cc1OCC	HEK293T ATF4-FLuc reporter	ATF4 reporter gene, activator, luciferase reporter			EC50	4750 nM
CC[N+](CC)(CC(=O)Nc1c(C)cccc1C)Cc1ccccc1	THP-1	pyroptotic LDH release	2 µM, 40 min, together with: LPS then nigericin		inhibition	3.78%
O=c1c(O)c(-c2ccc(O)cc2)oc2cc(O)cc(O)c12	Caco-2/THP-1 co-culture	TEER	0.05 µg/mL, together with: LPS 50 ng/mL	relative to: control	transepithelial electrical resistance	76.2 ± 2.4%
CCn1cc(-c2cc(Cn3ccnc3)cc3c2CCN([C@H](c2cc(OC)ccn2)C2CC2)C3=O)c(C(F)(F)F)n1	OCI-Ly10	cell growth, inhibitor	120 h		EC50	650 nM
Cc1ccc(CNC(=O)Cn2cc(CSc3nc4ccccc4[nH]3)nn2)cc1	MDA-MB-231	MTT	3.91 ppm		cytotoxicity	48.9%
Cn1cc(Nc2nccc(-c3ccc4c(c3)CN(C3COC3)CC[C@H]4NC(=O)c3cn(C(C)(C)C)nn3)n2)cn1	human B cells		100 nM, 64 h, stimulation-upregulated genes, together with: CD40L, anti-IgM, IL-4		number of upregulated genes	9
O=C(/C=C/C=C/C=C/C1CCCCC1)NC1=C[C@@](O)(/C=C/C=C/C=C/C(=O)NC2=C(O)CCC2=O)[C@@H]2O[C@@H]2C1=O	HEY A8	CellTiter-Glo	78 h		GI50	23100 nM
COc1cc(/C=C/C(=O)O)ccc1O	Caco-2/THP-1 co-culture	TEER	concentration not given, together with: LPS 100 ng/mL	relative to: control	transepithelial electrical resistance	73.6 ± 5.7%
C=Cc1c2[n-]c(c1C)/C=c1\[n-]/c(c(C)c1C=C)=C\c1[n-]c(c(CCC(=O)O)c1C)/C=c1\[n-]c(c(C)c1CCC(=O)O)=C2.[Sn+4]	SH-SY5Y	RNA-seq, item: SPOCD1 mRNA	5 µM, 5 h	relative to: untreated cells	fold change	5.29
CCCC(=O)[O-].[Na+]	coculture, Caco-2, THP-1	ELISA	500 ng/mL, 8 h, together with: LPS, IFNγ, ATP	relative to: untreated control	IL-1β level	2.9 ± 2.4 fold change
COc1cc(N2CCC(N3CCN(C)CC3)CC2)ccc1Nc1ncc(Cl)c(Nc2ccccc2P(C)(C)=O)n1	Ba/F3 EML4-ALK variant 1 L1196Q	cell viability			Emax	100%
Clc1ccc(C(Cn2ccnc2)OCc2ccc(Sc3ccccc3)cc2)c(Cl)c1 (stereo not drawn)	THP-1	pyroptotic LDH release	2 µM, 40 min, together with: LPS then nigericin		inhibition	1.49%
O=C(O)/C=C/c1ccc(O)c(O)c1	Caco-2/THP-1 co-culture		0.25 µg/mL, together with: LPS 250 ng/mL		kynurenine level	100 ± 5.3 % change

Excerpt of the above:
Compound	cell line	assay	conditions	scale	measurement	result
CCn1cc(-c2cc(Cn3ccnc3)cc3c2CCN([C@H](c2cc(OC)ccn2)C2CC2)C3=O)c(C(F)(F)F)n1	OCI-Ly10	cell growth, inhibitor	120 h		EC50	650 nM
Cc1ccc(CNC(=O)Cn2cc(CSc3nc4ccccc4[nH]3)nn2)cc1	MDA-MB-231	MTT	3.91 ppm		cytotoxicity	48.9%
Cn1cc(Nc2nccc(-c3ccc4c(c3)CN(C3COC3)CC[C@H]4NC(=O)c3cn(C(C)(C)C)nn3)n2)cn1	human B cells		100 nM, 64 h, stimulation-upregulated genes, together with: CD40L, anti-IgM, IL-4		number of upregulated genes	9
